Measurements from different studies.
Every numbered part comes from another study and shows a few of its results, in no order. Positions count from the first letter of the parent shown.

Sample 1 — technique: aptamer microarray, sandwich; form: DNA with 2'F-ANA; sample: in vitro; concentration: 200 nM; with: Cy3 exosite-II aptamer, 400 nM; direction: higher = stronger binding; strand: GGTTGGTGTGGTTGG
Target: Prothrombin, mature alpha-thrombin (F2, Homo sapiens, UniProt P00734)
Setting: whole 15-mer aptamer, many near background
Modification | mean fluorescence intensity
2'F-ANA at 1 4 6 7 8 9 10 11 12 13 | 54.3 a.u.
2'F-ANA at 1 4 5 6 9 11 | 49.1 a.u.
2'F-ANA at 2 3 5 6 8 9 12 13 14 | 53.2 a.u.
2'F-ANA at 3 4 5 9 11 14 15 | 49.6 a.u.
2'F-ANA at 2 4 5 8 9 10 12 13 14 | 43.4 a.u.
2'F-ANA at 1 5 7 8 9 11 12 13 15 | 73.7 a.u.
2'F-ANA at 3 6 8 9 10 11 12 | 513 a.u.
2'F-ANA at 2 3 5 10 11 12 13 | 68.9 a.u.

Sample 2 — technique: RNA Bind-n-Seq; form: RNA; sample: in vitro; concentration: 20 nM; setting: 6-mer, flanks averaged, single round; with: 150 mM KCl; relative to: input library; direction: higher = stronger binding
Target: TAR DNA-binding protein 43, full length, His tag (TARDBP, Homo sapiens, UniProt Q13148, residues 1-414)
Strand | 6-mer enrichment (R)
CCUUCG | 0.616
UAUUGC | 0.62
UUCAUG | 0.624
UAUGUG | 1.14
CCGGGU | 1.69
AAUACC | 0.613
ACCUCC | 0.593
UUGACU | 0.627

Sample 3 — technique: protein binding microarray; form: double-stranded DNA, one strand shown; sample: in vitro; concentration: not given; relative to: not given; direction: higher = stronger binding
Target: Histone acetyltransferase KAT6A, winged helix 1, GST fusion (KAT6A, Homo sapiens, UniProt Q92794, residues 1-85)
Setting: 8-mer, flanks averaged, mean of 2 arrays, mostly near background
Residues (chain): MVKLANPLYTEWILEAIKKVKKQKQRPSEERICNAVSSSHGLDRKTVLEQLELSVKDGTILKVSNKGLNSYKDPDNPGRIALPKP
Strand | E-score
CTCTCCAA | -0.127
ATACCCAG | -0.125
ACCGAGAA | -0.0348
CCTTCCGA | 0.0139
GTCATGCA | -0.182
CACAAGGG | -0.201
CACAAGGA | -0.188
TAGCATCA | -0.0351

Further values, each from its own experiment
Starting sequence: PafA, mature enzyme, eGFP fusion (Elizabethkingia meningoseptica, UniProt Q9KJX5); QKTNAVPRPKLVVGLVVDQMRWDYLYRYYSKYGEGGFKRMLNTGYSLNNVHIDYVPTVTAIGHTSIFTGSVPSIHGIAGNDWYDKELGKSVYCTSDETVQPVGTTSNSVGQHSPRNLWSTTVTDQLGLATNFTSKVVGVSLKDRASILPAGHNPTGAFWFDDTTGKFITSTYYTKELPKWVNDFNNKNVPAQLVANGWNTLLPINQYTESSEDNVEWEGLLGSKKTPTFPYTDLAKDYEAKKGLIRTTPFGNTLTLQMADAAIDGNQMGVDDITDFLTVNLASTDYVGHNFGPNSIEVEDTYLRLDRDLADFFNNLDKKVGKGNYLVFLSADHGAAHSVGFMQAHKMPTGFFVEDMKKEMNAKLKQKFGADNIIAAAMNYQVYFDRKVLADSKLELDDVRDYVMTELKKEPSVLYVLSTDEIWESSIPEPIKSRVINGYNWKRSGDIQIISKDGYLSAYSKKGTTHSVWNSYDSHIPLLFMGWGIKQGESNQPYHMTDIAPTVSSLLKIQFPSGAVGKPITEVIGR
Substitution | target | assay | test system | setting | scale | quantity | value
S30G | tungstate, free oxyanion | microfluidic competitive inhibition | in vitro, cell-free expressed | not given, derived from inhibition constants, unchanged parent 2230 nM | lower = stronger binding | oxyanion analog dissociation constant | 2.05 µM
